Assay results gathered from unrelated publications.
A part holds a random share of what one study measured. Positions count from the first letter of the parent shown.

Set 1
Target: tungstate, free oxyanion
Method: microfluidic competitive inhibition
Medium: in vitro, cell-free expressed
Tested at: not given
Setting: derived from inhibition constants, unchanged parent 2230 nM
Direction: lower = stronger binding
Starting sequence: PafA, mature enzyme, eGFP fusion (Elizabethkingia meningoseptica, UniProt Q9KJX5); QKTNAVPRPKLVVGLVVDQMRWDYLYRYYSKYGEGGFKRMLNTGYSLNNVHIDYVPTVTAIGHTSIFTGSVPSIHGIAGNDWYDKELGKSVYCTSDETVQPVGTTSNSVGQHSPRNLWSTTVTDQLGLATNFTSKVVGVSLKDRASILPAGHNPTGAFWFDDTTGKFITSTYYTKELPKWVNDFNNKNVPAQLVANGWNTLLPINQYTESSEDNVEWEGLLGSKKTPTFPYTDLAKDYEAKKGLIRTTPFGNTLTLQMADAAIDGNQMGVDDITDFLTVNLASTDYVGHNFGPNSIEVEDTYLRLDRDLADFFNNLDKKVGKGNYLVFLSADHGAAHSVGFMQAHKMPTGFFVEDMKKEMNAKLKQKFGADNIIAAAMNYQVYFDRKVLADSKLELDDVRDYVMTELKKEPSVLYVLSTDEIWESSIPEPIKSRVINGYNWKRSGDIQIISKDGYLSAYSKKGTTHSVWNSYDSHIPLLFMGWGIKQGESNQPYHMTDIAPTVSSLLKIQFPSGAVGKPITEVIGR
Substitution | oxyanion analog dissociation constant [nM]
M347V | 2270
P348V | 2140
T284G | 2150
V399G | 2020
T200G | 2150
L177V | 2460
K409G | 2190
L141G | 41700

Set 2
Target: CCNB3, cyclin fold, Cln2 fusion (human)
Method: yeast growth competition, sequencing
Medium: yeast
Setting: strong parent motif
Baseline: not given
Direction: higher = stronger binding
Starting sequence: viral docking peptide; TSVRRALFTGGSD; partner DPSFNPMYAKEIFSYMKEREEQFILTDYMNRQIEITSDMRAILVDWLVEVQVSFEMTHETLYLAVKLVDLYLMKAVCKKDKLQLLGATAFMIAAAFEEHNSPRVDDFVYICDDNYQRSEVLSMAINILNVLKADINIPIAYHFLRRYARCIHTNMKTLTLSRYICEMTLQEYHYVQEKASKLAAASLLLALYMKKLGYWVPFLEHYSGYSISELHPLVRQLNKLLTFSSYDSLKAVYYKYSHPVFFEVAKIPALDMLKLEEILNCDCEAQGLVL
Substitution | normalised enrichment score
A6L | 1.28
S2Y | 1.6
R5H | 0.437
V3W | 0.624
V3G | -0.0711
T9H | 1.87
L7S | -0.247
T9G | 1.89

Set 3
Target: UDP-N-acetylglucosamine--peptide N-acetylglucosaminyltransferase 110 kDa subunit (OGT, Homo sapiens, UniProt O15294)
Read-out: binding
Method: phage display NGS
Molecule type: peptide
Tested at: concentration not given
Setting: panning round 2
Baseline: input library
Residues (O15294 1-1046): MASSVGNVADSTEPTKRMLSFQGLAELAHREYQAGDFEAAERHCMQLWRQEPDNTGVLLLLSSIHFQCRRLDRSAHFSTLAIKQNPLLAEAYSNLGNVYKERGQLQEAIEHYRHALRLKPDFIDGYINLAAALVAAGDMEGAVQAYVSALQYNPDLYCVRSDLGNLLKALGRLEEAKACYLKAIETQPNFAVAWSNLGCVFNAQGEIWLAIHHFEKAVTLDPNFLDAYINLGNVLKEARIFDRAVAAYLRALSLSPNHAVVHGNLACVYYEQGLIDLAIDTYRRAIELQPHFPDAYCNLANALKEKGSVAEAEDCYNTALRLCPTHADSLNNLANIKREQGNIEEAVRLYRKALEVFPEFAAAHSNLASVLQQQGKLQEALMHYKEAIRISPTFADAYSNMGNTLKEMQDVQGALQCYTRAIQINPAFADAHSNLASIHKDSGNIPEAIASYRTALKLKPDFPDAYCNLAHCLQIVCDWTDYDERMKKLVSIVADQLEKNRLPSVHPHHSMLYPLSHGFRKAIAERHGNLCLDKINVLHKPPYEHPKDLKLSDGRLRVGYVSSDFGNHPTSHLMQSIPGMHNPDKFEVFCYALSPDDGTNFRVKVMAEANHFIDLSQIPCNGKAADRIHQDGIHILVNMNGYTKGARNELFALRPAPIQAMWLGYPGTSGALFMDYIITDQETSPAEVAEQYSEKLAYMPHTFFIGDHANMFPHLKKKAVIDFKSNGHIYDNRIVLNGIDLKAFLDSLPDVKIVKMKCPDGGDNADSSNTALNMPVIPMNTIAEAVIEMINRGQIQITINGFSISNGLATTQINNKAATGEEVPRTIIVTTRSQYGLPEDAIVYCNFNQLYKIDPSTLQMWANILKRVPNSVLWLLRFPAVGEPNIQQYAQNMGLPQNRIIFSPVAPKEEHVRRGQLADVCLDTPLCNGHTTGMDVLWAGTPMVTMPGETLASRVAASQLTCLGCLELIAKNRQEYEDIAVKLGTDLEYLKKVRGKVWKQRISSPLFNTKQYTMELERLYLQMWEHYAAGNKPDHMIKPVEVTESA
Sequence | enrichment fold change
YFGRVTFPPKYQIVF | 28.8
ESIYKPRYQISIAYA | 24.5
RYLPIYQILTHTQPF | 11.7
NIWMPVYQIRYSYNT | 17.5
QPQHQSNQHVHHRYF | 3.22
SMLSHYHEVMRHHRV | 4.77
IYLPIYQIQAQWPFK | 14.2
HIKWSTGWHHQGRT | 3.83

Other studies, line by line
SMILES | target | read-out | quantity | result
COC(=O)c1cc(N(C)C(=O)c2ccn3ncc(-c4ccc(C(=O)O)cc4)c3c2)ccc1Cl | Sodium-dependent serotonin transporter (SLC6A4, Homo sapiens, UniProt P31645) | cell-free assay | IC50 | > 30 µM

Excerpt of the above (set 1):
Substitution | oxyanion analog dissociation constant [nM]
P348V | 2140
T284G | 2150
V399G | 2020
T200G | 2150
